Assay results gathered from unrelated publications.
Each numbered part is a random draw from the data of one study; scales do not carry over between parts. Positions count from the first letter of the parent shown.

Study 1 — technique: competition protein-binding microarray; form: double-stranded DNA, one strand shown; matrix: in vitro; concentration: 2 µM; added: Cbf1 competitor, 0.05 µM; reading: higher = stronger binding; quantity: fluorescence intensity
Target: Phosphate system positive regulatory protein PHO4, full length, GST-tagged (PHO4, Saccharomyces cerevisiae, UniProt P07270, residues 1-312)
Setting: whole 60-bp probe, lowest competitor level
Construct (chain): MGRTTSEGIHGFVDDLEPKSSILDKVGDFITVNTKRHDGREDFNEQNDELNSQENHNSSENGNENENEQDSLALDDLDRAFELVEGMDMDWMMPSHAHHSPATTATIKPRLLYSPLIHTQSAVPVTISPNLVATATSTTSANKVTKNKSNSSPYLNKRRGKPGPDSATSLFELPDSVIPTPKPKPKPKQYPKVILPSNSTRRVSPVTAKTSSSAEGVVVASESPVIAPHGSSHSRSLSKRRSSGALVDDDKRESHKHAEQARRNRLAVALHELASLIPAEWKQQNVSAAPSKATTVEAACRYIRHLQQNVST
Oligonucleotide = GCGTTATGAGCTACCCTCGTGGCCGGAAAGATGGCGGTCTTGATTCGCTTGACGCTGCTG; value = 12500 a.u.
Oligonucleotide = TGGATTTTTCCAAAACACGTGTCGGAAACTTATTTTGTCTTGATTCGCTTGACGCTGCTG; value = 17600 a.u.
Oligonucleotide = ACAGATAAAGTCTAGTACGTGTGGAGGTTAATGCGCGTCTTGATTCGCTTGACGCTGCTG; value = 6350 a.u.
Oligonucleotide = CTTCTGTAAATTTGGAATGTGGGTGGACGCGCCCCGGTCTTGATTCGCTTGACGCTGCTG; value = 5570 a.u.
Oligonucleotide = CGGGGTTAAGTTTGATCTGTGGGTGGCTTGCAGCAGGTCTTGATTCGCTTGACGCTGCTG; value = 4260 a.u.
Oligonucleotide = CCGTTGACTTAGCTTCCTGTGATGCTGGTGTTGTTGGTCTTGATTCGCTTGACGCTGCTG; value = 4400 a.u.
Oligonucleotide = CGGGGTTAAGTTTGAGTCGTGGGTGGCTTGCAGCAGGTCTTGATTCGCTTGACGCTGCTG; value = 7050 a.u.
Oligonucleotide = GGTCCAGCCTCGAAACTCGTGACGGCATTTGAGGTGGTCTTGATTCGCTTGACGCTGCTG; value = 9020 a.u.

Study 2 — technique: protein binding microarray; form: double-stranded DNA, one strand shown; matrix: in vitro; concentration: not given; reference: not given; reading: higher = stronger binding; quantity: E-score
Target: Histone acetyltransferase KAT6A, winged helix 2, GST fusion (KAT6A, Homo sapiens, UniProt Q92794, residues 85-181)
Setting: 8-mer, flanks averaged, mean of 2 arrays, mostly near background
Residues (chain): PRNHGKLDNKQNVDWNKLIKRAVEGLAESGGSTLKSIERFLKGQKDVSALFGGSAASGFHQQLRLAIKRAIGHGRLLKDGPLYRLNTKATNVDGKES
Oligonucleotide = GGCCGACC; value = -0.0008
Oligonucleotide = GCACACCC; value = -0.0836
Oligonucleotide = TCTCGACA; value = 0.0867
Oligonucleotide = AACGTCCC; value = -0.0962
Oligonucleotide = CTCATATA; value = -0.191
Oligonucleotide = ACCGATGA; value = 0.063
Oligonucleotide = GCTCTGAA; value = 0.0574
Oligonucleotide = ACCTAGCT; value = -0.088
Oligonucleotide = AATGTTAA; value = -0.157
Oligonucleotide = GGGCTAAA; value = 0.0143
Oligonucleotide = CGAATCTA; value = -0.0668
Oligonucleotide = TGACTAAA; value = 0.0605
Oligonucleotide = CGGCGCGC; value = 0.304
Oligonucleotide = AATAACCC; value = -0.0895
Oligonucleotide = CCAGCCGA; value = 0.117
Oligonucleotide = AGGGACAG; value = -0.0545

Study 3 — technique: RNA Bind-n-Seq; form: RNA; matrix: in vitro; concentration: not given; reference: input RNA pool; reading: higher = stronger binding; quantity: bound/input enrichment
Target: RING finger protein unkempt homolog, zinc fingers 1-6, GST-SBP tag (UNK, Homo sapiens, UniProt Q9C0B0, residues 30-357)
UniProt Q9C0B0, sequence (30-357, looked up): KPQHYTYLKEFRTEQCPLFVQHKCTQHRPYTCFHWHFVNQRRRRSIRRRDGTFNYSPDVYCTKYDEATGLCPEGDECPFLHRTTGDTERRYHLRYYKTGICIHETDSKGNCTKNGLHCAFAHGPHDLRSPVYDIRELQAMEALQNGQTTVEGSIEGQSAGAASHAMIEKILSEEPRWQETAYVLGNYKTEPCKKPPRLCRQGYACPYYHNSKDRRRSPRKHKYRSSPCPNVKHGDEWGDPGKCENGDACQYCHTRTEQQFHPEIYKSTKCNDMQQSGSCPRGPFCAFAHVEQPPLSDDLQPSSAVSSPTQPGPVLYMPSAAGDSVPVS
Setting: RNA with constant flanks, human-mouse chimeric sites, ends assumed
Oligonucleotide = GGGAGUUCUACAGUCCGACGAUCUCUUUAAAAAAAAAAUUACCUUUUCUGACAGUGCUUUCCCUCCCAUAGGUCCAGGUUCACACUAGAAGAGCAAAGGCUUUGCACGGAGCUCAAACAUCUGAUGAAGAAAGAUUUCUGAGACAACAGAGGAUUGAGCAUCA; value = 0.444 ratio
Oligonucleotide = GGGAGUUCUACAGUCCGACGAUCUCAGAAGCUGUGCUGGGUCACUUUUCAUAUCCAGAUCCUUCACAGUGGACAGAUGAAGAACUGGGAAUCCCUCCUGAUGAUGAAGACUGACACUGUAAACUCUCUGGACGAGUAGGAGCACAACAGAGGAUUGAGCAUCA; value = 0.411 ratio
Oligonucleotide = GGGAGUUCUACAGUCCGACGAUCCACACACUCUUCUGCGGGACCCUCAUCUUGCAGGCCCGGGCCUAUGUGGGACCGCACGUCCUGGCAGUGGUGACCCGCACAGGGUUCUGCACAGCCAAAGGGGGCCUGGUGAGCUCCAUCCAACAGAGGAUUGAGCAUCA; value = 0.12 ratio
Oligonucleotide = GGGAGUUCUACAGUCCGACGAUCUUCCCAACCUCCCGCCUCACCCCACCCCCGCUUUUUGGAAAGUUUUUGGCGUUUCUUUUCCUUCCCCAUACAAAGUGAUUACAGUUUAGAGUCUAUGGGUCUAUCGAAGGGCUUGACGGACAACAGAGGAUUGAGCAUCA; value = 0.789 ratio

Study 4 — technique: DHFR PCA, dose-response; matrix: yeast; added: (+)-ABA, dose series; reading: lower = more sensitive; quantity: ABA EC50
Target: ABI1, truncated, D143A, DHFR fusion (Arabidopsis thaliana, UniProt P49597)
Setting: Hill fit, not affinity, not high confidence
Parent: PYL1, truncated, DHFR fusion (Arabidopsis thaliana, UniProt Q8VZS8); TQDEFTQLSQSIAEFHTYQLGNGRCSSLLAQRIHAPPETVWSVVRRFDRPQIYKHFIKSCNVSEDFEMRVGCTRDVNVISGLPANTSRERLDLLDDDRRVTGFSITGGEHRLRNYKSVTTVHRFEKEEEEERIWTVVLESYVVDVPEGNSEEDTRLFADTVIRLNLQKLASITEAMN
Change = E89A; value = 1430 µM
Change = R46I; value = 106 µM
Change = Y141L; value = 820 µM
Change = K54C; value = 38.6 µM
Change = C60W; value = 767 µM
Change = A35D; value = 42.2 µM
Change = A158E; value = 33.4 µM
Change = H110R; value = 3.43 µM
Change = A158D; value = 0.662 µM
Change = F103E; value = 4.98 µM
Change = L164D; value = 609 µM
Change = S80M; value = 0.693 µM
Change = P50F; value = 109 µM
Change = C60H; value = 754 µM

Study 5 — target: CCNA1, cyclin fold, Cln2 fusion (human); technique: yeast growth competition, sequencing; matrix: yeast; setting: weak parent motif; reference: not given; reading: higher = stronger binding; quantity: normalised enrichment score
Parent: SLBP docking peptide (human); ARYKRKLLINDFG
Change = ARYKRFLLINDFG [K6F]; value = 0.097
Change = ARYMRKLLINDFG [K4M]; value = 0.42
Change = ARYKRKLLQNDFG [I9Q]; value = 0.284
Change = ARYKRKLLINDFW [G13W]; value = -0.221
Change = ARYKRKLRINDFG [L8R]; value = 0.0865
Change = AAYKRKLLINDFG [R2A]; value = 0.203
Change = ARYKRKLLENDFG [I9E]; value = 0.274
Change = ARYKMKLLINDFG [R5M]; value = 0.544
Change = ARYKRKLLINDFE [G13E]; value = 0.566
Change = ARYKRKLLINDFF [G13F]; value = 0.221
Change = ARNKRKLLINDFG [Y3N]; value = 0.396
Change = ARYKRKLLINDQG [F12Q]; value = 0.366
Change = IRYKRKLLINDFG [A1I]; value = 0.0731

Study 6 — technique: RNA Bind-n-Seq; form: RNA; matrix: in vitro; concentration: 365 nM; reference: no-protein control; reading: higher = stronger binding; quantity: RBNS enrichment (R)
Target: RNA binding protein fox-1 homolog 2, RRM domain, GST-SBP tag (RBFOX2, Homo sapiens, UniProt O43251-10, residues 100-194)
Setting: natural RNA segment, single round, ends assumed
Residues (chain): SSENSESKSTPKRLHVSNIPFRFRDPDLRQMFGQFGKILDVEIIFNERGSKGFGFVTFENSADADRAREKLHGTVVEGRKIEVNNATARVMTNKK
Oligonucleotide = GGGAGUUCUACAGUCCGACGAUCCCCAGACUUCAACCCCACAGAGUCCUCUCUUACCACCCCCAUAUGCUUCGCCCCACUGCAUAGCUGUGUUAAGCUACAUGGCUUUAAUGAUAAAUGGGUUUAUUUCUAAGUGGAAUUCUCGGGUGCCAA; value = 0.548
Oligonucleotide = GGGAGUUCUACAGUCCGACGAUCAUCAUCGGGAAAAAACUUUGCUCCAGGCAUCACUGAUUCCCUCUCCCACCCAAGGAGAACGUUUGGUACAAUCGACAUCCUAGCCCCACCCAGAGGUGGCCCUCCCAGGCUGGAAUUCUCGGGUGCCAA; value = 0.387
Oligonucleotide = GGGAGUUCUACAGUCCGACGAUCACCCCAUCAUUUAAAAAAUGGACCUGAUAAUAUGAAGCAUCUUCCUUGUAAUUGUCUCUGACCUUUUUAUCUGAGACCGGAAUUCAGGAUAGGAGUCUAGAUAUUUACCUUGGAAUUCUCGGGUGCCAA; value = 0.711
Oligonucleotide = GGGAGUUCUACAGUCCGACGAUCUUUAUUUUAUCCCUAAUAACAGAAGUCUCCCUUCCAUGGUUUUAGCGUUGCCUUUUUAAAAAGGCACUCACCCUGAGUUGUUAAGAACUGGACCUGCCCCACCCUCAGAUUGGAAUUCUCGGGUGCCAA; value = 0.31
Oligonucleotide = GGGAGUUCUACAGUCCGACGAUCGAGCGAAGCCCUAUCUGGAGACUUGACUCCAGAGCGAAGGUUCAACUGCGCCUGCAGUCACUAUCCCUACUUUUGUGGUUCAUAGAAGUCUGCAUGUGCGUUGAUUCUGUUGGAAUUCUCGGGUGCCAA; value = 0.188
Oligonucleotide = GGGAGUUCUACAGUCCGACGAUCUCCUCAGAGUACCUAUAAACACUUACCCCUUCCUAGAUGGCAUUAAACUCCAUUCUAGAUGUUAGGAAAGUUGUAACAUGCACACUCACUCAGCCGAUCAGGAAUCAUUGUGGAAUUCUCGGGUGCCAA; value = 0.273
Oligonucleotide = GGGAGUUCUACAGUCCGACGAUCUAUGAAGCAAAGAGGAUCCUGGGCUAUUUAAAGCUCUGGUAACCGAGAAGAACUUGCCCCUGUUCUUACCUAGCUUCUUUGAGUCAGUCAGUGUGCAGAGCUCCUUUCUGUGGAAUUCUCGGGUGCCAA; value = 0.312
Oligonucleotide = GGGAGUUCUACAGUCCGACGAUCGAUGAAGCCCACUUGAUCAUGGUGGAUAAGCUUUUUGAUGUGCUGCUGGAUUCGUUUUGCCAGUAUUUUAUCCAGUUAGAAUGGCAAUCAUUAAAAAGUCAGGAAACAACUGGAAUUCUCGGGUGCCAA; value = 0.545
Oligonucleotide = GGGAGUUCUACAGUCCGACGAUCUUAACUUUCUCUUCCUUAAAUACAAGUCAAUGAAGUGAAGGAGGGUAUGCAUACAUGCCCCUCACCCUACCCCAGGGACCAUGGUUCCUAGGAUCUCACUGCCUCCCUCUUGGAAUUCUCGGGUGCCAA; value = 0.232
Oligonucleotide = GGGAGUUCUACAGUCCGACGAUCACAAAGUCUAAUGCAUAAGCAGAACCGAAAAGCAGACCGACAAUUGGUUAACAAAUAAUUCUUUUUUUUUCUUUUUUGAUGUGUUGAGUCUUAUUUUUGUGGGGUUUUUUUGGAAUUCUCGGGUGCCAA; value = 0.436

Study 7 — technique: universal PBM; form: double-stranded DNA, one strand shown; matrix: in vitro; concentration: not given; reading: higher = stronger binding; quantity: E-score
Target: Sal-like protein 4, full length isoform B (SALL4, Homo sapiens, UniProt Q9UJQ4-2, residues 1-616)
Setting: 8-mer, flanks averaged, mean of replicates
Oligonucleotide = CGCCGGAA; value = -0.263
Oligonucleotide = CTGTTGGA; value = 0.0929
Oligonucleotide = CAGCAAAC; value = -0.0494
Oligonucleotide = TGGTACAA; value = 0.119
Oligonucleotide = ACTCTGCT; value = -0.204
Oligonucleotide = CCACCGAG; value = -0.275
Oligonucleotide = ATTCCCCG; value = -0.0193
Oligonucleotide = CTTCGAAG; value = -0.0274
Oligonucleotide = ATTAAAAG; value = 0.276
Oligonucleotide = ATTTCCTC; value = 0.073
Oligonucleotide = AATTCACT; value = 0.201
Oligonucleotide = ATCCGTCA; value = -0.0981
Oligonucleotide = ACTCCTCC; value = -0.208
Oligonucleotide = GTCGAAAA; value = 0.0628
Oligonucleotide = AGGGATGC; value = -0.154
Oligonucleotide = CGTCTCGA; value = 0.00506
